Published values of several laboratories.
Every numbered part comes from another study and shows a few of its results, in no order. Values joined by “and” are separate records of one study, mostly repeats; a detail may differ. Positions count from the first letter of the parent shown.
UniProt Q93WC4, sequence (whole entry, looked up): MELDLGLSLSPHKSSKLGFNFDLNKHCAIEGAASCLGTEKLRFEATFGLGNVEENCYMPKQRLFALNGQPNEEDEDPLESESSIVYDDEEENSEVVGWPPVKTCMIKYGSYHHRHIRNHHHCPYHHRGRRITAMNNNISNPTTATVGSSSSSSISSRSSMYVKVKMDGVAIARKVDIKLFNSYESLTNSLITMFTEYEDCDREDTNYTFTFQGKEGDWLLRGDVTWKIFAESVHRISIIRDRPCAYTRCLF
UniProt Q38829, sequence (whole entry, looked up): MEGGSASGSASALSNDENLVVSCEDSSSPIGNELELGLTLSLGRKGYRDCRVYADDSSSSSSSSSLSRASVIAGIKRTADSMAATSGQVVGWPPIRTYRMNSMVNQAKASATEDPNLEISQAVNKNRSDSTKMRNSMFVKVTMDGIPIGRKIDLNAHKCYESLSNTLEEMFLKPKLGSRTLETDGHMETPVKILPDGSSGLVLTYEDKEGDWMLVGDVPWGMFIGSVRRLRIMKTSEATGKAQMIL
UniProt Q38828, sequence (whole entry, looked up): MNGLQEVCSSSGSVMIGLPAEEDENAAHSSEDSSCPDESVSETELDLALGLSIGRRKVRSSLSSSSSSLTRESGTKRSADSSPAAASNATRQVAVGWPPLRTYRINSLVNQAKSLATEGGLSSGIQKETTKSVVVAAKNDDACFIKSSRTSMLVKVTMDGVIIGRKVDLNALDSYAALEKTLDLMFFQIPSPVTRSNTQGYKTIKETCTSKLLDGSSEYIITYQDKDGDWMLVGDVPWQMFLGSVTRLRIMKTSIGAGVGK
UniProt Q9C966, sequence (whole entry, looked up): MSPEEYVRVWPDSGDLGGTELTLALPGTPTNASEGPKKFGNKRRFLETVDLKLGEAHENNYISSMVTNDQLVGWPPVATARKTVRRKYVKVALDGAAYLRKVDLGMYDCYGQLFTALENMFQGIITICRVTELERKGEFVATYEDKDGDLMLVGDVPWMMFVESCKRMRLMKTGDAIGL
UniProt Q9M1R4, sequence (whole entry, looked up): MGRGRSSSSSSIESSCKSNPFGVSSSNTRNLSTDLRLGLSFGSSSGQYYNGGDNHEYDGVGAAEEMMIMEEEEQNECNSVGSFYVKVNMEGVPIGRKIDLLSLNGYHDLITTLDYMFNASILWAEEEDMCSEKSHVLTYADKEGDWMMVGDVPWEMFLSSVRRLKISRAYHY
UniProt Q9C5W9, sequence (whole entry, looked up): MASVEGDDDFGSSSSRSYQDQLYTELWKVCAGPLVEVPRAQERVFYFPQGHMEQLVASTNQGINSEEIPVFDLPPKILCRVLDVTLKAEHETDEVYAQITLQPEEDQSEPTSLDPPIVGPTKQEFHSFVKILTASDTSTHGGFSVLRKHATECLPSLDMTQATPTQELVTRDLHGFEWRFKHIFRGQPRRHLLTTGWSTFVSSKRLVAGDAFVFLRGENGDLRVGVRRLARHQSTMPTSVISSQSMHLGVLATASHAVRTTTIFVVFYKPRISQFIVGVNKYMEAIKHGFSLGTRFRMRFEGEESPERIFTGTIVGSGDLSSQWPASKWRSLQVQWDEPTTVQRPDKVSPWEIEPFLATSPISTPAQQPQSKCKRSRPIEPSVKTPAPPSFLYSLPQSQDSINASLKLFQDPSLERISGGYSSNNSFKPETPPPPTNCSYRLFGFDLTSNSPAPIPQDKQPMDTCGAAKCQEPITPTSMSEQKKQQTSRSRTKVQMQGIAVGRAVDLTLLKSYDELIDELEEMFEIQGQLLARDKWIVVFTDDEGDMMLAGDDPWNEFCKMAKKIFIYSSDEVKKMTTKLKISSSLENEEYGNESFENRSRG
UniProt Q8H174, sequence (whole entry, looked up): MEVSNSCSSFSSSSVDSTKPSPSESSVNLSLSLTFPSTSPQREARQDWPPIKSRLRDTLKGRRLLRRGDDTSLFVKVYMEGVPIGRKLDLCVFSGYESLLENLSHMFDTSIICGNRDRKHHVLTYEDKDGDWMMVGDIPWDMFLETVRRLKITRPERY

Sample 1
Target: UDP-N-acetylglucosamine--peptide N-acetylglucosaminyltransferase 110 kDa subunit (OGT, Homo sapiens, UniProt O15294)
UniProt O15294, sequence (whole entry, looked up): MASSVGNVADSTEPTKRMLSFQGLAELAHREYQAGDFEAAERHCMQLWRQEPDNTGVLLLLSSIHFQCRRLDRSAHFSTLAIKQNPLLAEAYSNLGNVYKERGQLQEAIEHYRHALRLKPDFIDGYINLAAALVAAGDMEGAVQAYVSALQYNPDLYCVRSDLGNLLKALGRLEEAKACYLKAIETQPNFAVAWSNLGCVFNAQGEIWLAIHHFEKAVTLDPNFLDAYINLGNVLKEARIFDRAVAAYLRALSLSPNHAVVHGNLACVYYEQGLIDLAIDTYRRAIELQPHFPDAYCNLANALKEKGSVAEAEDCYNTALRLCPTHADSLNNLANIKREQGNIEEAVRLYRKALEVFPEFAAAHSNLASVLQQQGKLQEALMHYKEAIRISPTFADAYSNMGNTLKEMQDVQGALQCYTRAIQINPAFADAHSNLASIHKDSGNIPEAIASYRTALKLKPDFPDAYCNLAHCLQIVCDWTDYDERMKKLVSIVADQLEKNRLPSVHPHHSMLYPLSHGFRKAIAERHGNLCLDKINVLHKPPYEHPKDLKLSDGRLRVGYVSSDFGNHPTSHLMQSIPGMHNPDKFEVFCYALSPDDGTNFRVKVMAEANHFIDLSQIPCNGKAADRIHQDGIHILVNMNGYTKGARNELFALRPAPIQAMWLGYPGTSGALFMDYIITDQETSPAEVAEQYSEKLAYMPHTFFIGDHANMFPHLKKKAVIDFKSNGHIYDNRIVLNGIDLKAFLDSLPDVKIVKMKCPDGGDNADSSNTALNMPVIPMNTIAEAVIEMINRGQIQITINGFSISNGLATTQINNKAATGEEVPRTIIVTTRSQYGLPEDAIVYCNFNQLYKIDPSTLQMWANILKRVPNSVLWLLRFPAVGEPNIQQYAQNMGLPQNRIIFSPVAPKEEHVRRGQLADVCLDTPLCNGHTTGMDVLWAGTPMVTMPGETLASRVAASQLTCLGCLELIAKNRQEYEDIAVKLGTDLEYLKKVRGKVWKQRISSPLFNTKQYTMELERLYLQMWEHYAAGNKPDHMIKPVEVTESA
Observed: binding
Method: phage display NGS
Molecule type: peptide
Tested at: concentration not given
Relative to: input library
| Sequence | enrichment fold change |
| --- | --- |
| YAHTHMYNHPAIYTH | 3.42 |
| VADRFLPIYQLTTRG | 6.03 |
| TDSYMPVYEIKSKAV | 5.66 |
| HTYYQHQHGQGDRYI | 3.18 |
| NWYVSDHTDNHHSMA | 5.62 |
| HQQHSMHFKWNIIQA | 3.76 |
| WSIHHMPRHESKYTD | 7.3 |
| WPHNWAYHGFDWHA | 55.6 |
| QATSPFAPIYQMIRD | 6.01 |
| HLEQHMHHMIHKYAN | 3.21 |
| HQFDGHSNLHIHSIE | 3.48 |
| HTKGFMHRIQHHYYF | 9.45 |
| HFISPHPHRVENRMH | 3.25 |
| HQHQHIDHHYLFEG | 5.35 |
| SWMPFYQIEFSQGSS | 14.8 |
| QYLPQYQILPVIYSS | 2.32 |
| QNYRPFYMINISSGS | 1.92 and 3.24 |
| HGPYHVPRHVPYKYG | 9.97 |
| SKSHHTEKFWHYTHV | 8.02 |
| AHHSAWAPKYLINI | 10.8 |
| SRQHHHYVQAMPYRD | 2.38 |
| HQMPFAFHHDHPFVH | 4.91 |
| TFEHWYWTDTTYKHH | 5.29 |
| RMYHNHVTDRHVTQ | 3 |
| HWDHWQHTINHNVDG | 7.48 |

Sample 2
Sequence: B1 (IAA5)
Method: two-hybrid
Relative to: out of 4 tests
Direction: higher = firmer interaction
T1: itself; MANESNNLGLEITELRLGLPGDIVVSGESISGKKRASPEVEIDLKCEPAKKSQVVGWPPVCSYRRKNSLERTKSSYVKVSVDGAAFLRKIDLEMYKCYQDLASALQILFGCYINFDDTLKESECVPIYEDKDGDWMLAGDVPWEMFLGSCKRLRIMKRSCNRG
B1: IAA5 (Arabidopsis thaliana, UniProt P33078); chain MANESNNLGLEITELRLGLPGDIVVSGESISGKKRASPEVEIDLKCEPAKKSQVVGWPPVCSYRRKNSLERTKSSYVKVSVDGAAFLRKIDLEMYKCYQDLASALQILFGCYINFDDTLKESECVPIYEDKDGDWMLAGDVPWEMFLGSCKRLRIMKRSCNRG
| partner | conditions | positive tests |
| --- | --- | --- |
| IAA31 (Arabidopsis thaliana, UniProt Q8H174) | – | 4 |
| ARF18 482-602 (Arabidopsis thaliana, UniProt Q9C5W9) | – | 0 |
| IAA10 (Arabidopsis thaliana, UniProt Q38828) | – | 4 |
| IAA30 (Arabidopsis thaliana, UniProt Q9M1R4) | weak activation fusion | 2 |
| IAA15 (Arabidopsis thaliana, UniProt Q9C966) | – | 3 |
| IAA29 (Arabidopsis thaliana, UniProt Q93WC4) | – | 2 |
| T1, itself | – | 2 |
| IAA11 (Arabidopsis thaliana, UniProt Q38829) | weak activation fusion | 1 |

Sample 3
Target: tungstate, free oxyanion
Method: microfluidic competitive inhibition
Sample: in vitro, cell-free expressed
Tested at: not given
Notes: derived from inhibition constants, unchanged parent 2230 nM
Direction: lower = stronger binding
Starting sequence: PafA, mature enzyme, eGFP fusion (Elizabethkingia meningoseptica, UniProt Q9KJX5); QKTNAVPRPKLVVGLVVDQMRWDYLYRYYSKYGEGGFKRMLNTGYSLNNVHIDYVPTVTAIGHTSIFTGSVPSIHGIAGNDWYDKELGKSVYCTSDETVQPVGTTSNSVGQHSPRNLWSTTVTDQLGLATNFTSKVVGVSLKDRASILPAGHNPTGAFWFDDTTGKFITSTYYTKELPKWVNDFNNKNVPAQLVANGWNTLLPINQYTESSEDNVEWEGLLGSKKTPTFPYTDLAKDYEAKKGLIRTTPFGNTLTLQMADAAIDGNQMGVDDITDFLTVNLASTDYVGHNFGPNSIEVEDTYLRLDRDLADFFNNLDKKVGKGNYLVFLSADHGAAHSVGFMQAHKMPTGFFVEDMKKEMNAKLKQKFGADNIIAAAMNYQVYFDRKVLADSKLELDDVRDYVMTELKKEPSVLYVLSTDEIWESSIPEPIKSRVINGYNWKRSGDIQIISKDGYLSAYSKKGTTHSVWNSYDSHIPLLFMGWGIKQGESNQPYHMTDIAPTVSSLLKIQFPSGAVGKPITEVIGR
| Substitution | oxyanion analog dissociation constant [µM] |
| --- | --- |
| V16A | 2.35 |
| K452G | 1.39 |
| K175V | 2.09 |
| N470V | 2.05 |
| R434G | 1.28 |
| T120G | 1.98 |
| S426V | 2.03 |
| Q125G | 2.01 |
| E176V | 2.44 |

Sample 4
Target: CCNE1, cyclin fold, Cln2 fusion (human)
Method: yeast growth competition, sequencing
Sample: yeast
Notes: strong parent motif
Relative to: not given
Direction: higher = stronger binding
Starting sequence: viral docking peptide; KGVKRKLFAEDSS
| Substitution | normalised enrichment score |
| --- | --- |
| K4A | 6.74 |
| R5M | 0.798 |
| E10V | 6.97 |
| G2P | 7.71 |
| R5L | 0.599 |
| L7K | 0.261 |
| K4W | 1.49 |
| A9R | 7.48 |
| E10L | 6.71 |
| F8P | 0.133 |
| R5V | 1.61 |
| G2N | 7.46 |
| E10M | 6.94 |
| S12W | 7.24 |
| V3L | 2.21 |
| K4G | 1.84 |
| L7P | 0.075 |
| A9E | 7.37 |
| K6F | 3.54 |
| V3F | 7.14 |
| K4E | 1.99 |
| D11F | 7.07 |
| S12N | 7.74 |
| K6L | 5.22 |
| K1A | 8.32 |

For quick reference, copied from above (sample 4):
| Substitution | normalised enrichment score |
| --- | --- |
| K6F | 3.54 |
| V3F | 7.14 |
| K4E | 1.99 |
| D11F | 7.07 |
| S12N | 7.74 |
